Results from different studies.
Each numbered part is a random draw from the data of one study; scales do not carry over between parts.
Sequence of UniProt P22607 (whole entry, unmodified, looked up): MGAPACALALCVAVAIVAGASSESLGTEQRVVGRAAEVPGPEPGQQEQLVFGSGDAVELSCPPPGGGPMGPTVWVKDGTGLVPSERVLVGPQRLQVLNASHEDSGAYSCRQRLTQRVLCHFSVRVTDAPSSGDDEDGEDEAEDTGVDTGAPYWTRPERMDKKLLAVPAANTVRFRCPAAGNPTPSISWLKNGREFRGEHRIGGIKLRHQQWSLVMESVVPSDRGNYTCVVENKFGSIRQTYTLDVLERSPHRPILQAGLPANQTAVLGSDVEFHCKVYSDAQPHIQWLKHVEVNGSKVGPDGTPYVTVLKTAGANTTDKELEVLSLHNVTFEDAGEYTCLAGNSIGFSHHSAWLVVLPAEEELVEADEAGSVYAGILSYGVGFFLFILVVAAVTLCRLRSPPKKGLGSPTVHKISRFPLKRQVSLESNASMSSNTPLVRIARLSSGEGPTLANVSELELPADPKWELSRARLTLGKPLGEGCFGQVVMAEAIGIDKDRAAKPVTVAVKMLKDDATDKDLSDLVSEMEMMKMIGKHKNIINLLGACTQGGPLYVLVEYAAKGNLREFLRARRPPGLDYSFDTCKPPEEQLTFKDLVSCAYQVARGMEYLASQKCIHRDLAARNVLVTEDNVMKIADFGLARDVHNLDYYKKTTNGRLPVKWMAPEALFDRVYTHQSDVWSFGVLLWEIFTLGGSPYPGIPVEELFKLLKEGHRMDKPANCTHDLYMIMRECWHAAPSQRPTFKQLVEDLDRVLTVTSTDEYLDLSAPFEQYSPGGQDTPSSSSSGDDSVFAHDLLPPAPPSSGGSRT
Sequence of UniProt P16591 (whole entry, looked up): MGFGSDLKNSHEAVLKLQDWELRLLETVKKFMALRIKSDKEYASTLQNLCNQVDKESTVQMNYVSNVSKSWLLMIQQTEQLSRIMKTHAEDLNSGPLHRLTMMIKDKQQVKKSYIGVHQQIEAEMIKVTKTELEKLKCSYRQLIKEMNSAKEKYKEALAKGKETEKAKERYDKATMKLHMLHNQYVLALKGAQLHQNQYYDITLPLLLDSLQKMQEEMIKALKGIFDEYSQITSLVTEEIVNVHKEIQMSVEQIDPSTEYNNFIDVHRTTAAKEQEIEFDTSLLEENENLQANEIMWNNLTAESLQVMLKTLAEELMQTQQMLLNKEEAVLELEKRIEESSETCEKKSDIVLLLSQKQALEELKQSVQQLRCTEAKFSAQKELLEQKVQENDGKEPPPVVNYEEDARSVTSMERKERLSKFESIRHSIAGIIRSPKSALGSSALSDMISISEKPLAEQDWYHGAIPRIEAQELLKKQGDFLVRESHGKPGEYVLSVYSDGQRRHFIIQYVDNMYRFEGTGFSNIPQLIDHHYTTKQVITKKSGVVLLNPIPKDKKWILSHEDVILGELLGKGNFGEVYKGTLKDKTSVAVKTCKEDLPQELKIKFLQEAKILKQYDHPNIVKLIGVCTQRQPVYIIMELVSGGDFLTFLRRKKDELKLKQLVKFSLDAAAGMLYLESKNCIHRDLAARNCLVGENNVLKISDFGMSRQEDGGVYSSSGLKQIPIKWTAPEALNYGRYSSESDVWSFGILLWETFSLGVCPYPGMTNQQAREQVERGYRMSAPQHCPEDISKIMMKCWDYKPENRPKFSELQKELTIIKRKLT
Sequence of UniProt P35590 (whole entry, looked up): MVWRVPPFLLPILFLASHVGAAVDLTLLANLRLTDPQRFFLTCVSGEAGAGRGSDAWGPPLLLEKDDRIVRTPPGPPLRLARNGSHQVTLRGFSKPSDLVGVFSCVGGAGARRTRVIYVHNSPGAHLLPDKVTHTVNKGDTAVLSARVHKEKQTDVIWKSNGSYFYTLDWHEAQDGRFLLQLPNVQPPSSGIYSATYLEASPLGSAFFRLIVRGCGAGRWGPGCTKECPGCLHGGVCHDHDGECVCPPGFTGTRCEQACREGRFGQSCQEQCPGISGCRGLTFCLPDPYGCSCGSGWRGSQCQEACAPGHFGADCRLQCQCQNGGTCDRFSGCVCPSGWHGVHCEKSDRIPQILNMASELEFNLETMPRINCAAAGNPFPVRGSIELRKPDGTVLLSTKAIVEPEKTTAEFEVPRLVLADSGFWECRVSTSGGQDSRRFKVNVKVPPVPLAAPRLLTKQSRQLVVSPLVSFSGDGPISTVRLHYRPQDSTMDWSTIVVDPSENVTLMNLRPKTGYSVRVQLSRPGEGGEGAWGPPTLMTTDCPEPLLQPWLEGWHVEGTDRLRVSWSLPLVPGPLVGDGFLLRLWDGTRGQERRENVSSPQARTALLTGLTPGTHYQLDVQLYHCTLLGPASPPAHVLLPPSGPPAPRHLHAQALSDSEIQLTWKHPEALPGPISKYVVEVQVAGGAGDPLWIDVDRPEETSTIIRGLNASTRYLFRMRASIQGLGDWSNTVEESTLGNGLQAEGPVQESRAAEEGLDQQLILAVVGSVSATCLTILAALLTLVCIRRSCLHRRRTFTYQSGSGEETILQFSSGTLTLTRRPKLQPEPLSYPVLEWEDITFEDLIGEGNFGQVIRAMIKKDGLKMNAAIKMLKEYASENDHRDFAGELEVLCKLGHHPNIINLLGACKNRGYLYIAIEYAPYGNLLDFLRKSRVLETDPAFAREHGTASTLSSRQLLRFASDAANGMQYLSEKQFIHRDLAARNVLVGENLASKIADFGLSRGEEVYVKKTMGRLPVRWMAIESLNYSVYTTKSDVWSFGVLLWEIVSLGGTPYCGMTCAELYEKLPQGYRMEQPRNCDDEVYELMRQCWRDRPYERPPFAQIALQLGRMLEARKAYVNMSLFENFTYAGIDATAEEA
Sequence of UniProt Q8IVH8 (whole entry, looked up): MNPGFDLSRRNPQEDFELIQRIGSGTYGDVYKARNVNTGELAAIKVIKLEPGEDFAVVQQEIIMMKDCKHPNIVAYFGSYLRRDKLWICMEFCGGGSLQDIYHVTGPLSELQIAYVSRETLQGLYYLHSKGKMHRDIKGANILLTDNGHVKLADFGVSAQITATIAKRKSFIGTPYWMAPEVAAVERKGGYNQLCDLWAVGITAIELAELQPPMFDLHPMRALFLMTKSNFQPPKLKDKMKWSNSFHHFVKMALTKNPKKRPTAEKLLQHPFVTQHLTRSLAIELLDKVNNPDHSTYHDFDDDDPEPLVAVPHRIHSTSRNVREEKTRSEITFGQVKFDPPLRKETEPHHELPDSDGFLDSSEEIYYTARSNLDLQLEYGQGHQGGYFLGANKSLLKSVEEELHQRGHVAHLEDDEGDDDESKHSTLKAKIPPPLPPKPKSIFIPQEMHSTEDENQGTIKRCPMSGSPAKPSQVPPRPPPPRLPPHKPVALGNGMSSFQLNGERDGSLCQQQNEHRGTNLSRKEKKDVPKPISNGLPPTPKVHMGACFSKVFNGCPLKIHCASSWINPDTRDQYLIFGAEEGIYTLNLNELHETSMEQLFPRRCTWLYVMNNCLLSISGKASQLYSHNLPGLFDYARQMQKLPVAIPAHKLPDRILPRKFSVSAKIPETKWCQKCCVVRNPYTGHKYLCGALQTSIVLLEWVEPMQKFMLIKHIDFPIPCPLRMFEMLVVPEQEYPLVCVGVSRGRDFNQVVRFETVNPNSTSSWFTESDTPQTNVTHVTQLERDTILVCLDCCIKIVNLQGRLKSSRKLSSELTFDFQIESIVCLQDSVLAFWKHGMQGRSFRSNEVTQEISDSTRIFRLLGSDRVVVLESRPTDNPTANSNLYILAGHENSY

Study 1
SMILES: O=C(O)[C@H]1[C@H](Cn2nnc3ccccc3c2=O)CC[C@@H]1C(=O)c1ccc(OCCC2CCOCC2)cc1
Effect on: cell-free assay
Method: competition with immobilised ligand
Concentration: 1 µM
LIM domain kinase 1 (LIMK1, Homo sapiens, UniProt P53667) — remaining binding: 100%.
It gave 100% for remaining binding (MAP4K3 (Homo sapiens, UniProt Q8IVH8)).
FGFR3 (Homo sapiens, UniProt P22607, G697C) — remaining binding: 100%.
For STK24 (Homo sapiens, UniProt Q9Y6E0): remaining binding read 90%.
CHEK1 (Homo sapiens, UniProt O14757) — remaining binding: 100%.
FER (Homo sapiens, UniProt P16591) — remaining binding: 90%.
PKMYT1 (Homo sapiens, UniProt Q99640) — remaining binding: 96%.
For DYRK1B (Homo sapiens, UniProt Q9Y463): remaining binding read 100%.
The remaining binding was 75% (TIE1 (Homo sapiens, UniProt P35590)).
It gave 72% for remaining binding (FLT3 (Homo sapiens, UniProt P36888, D835H)).
CAMK2A (Homo sapiens, UniProt Q9UQM7) — remaining binding: 100%.

Study 2
Target: Protein C-ets-1 (ETS1, Homo sapiens, UniProt P14921, residues 1-441, Y397A, full length assumed)
Method: protein-binding microarray
Molecule type: double-stranded DNA, one strand shown
Sample: in vitro
Concentration: not given
Notes: k-mer, scored over probes, only values ≥0.25
Direction: higher = stronger binding
Construct (chain): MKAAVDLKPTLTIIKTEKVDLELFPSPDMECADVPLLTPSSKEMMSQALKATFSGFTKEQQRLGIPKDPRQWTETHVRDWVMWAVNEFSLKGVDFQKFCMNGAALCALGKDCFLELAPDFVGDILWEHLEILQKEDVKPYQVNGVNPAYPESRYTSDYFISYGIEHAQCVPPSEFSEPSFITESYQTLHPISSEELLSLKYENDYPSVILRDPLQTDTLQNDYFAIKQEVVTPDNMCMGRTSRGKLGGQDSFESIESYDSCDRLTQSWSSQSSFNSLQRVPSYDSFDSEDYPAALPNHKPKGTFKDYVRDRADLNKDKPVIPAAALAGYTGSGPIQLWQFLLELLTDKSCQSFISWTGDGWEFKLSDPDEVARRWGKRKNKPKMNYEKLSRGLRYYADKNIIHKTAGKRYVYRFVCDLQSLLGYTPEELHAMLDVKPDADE
`CTGTTATA` gave an E-score of 0.256.
The E-score of `TGCCACAA` is reported as 0.305.
For `CGTGTCAC`, the E-score was 0.282.
`CGGCAAAC` gave an E-score of 0.393.
`CGGATGCA` gave an E-score of 0.282.
`TCGACAAA` has an E-score of 0.326.
`AAGTGCCA` has an E-score of 0.269.
For `CATCCGGC`, the E-score was 0.435.

Study 3
Target: Cyclin-dependent kinase 7 (CDK7, Homo sapiens, UniProt P50613)
Sequence of UniProt P50613 (whole entry, looked up): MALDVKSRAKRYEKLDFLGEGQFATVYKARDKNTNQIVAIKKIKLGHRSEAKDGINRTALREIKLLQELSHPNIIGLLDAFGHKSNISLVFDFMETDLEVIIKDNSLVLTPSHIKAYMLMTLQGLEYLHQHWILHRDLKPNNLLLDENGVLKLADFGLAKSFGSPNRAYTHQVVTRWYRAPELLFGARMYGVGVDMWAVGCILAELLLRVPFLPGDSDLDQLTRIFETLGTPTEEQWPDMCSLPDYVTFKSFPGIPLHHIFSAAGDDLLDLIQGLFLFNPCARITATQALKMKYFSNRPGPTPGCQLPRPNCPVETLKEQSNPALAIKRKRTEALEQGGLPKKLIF
Effect on: enzyme activity
Action: inhibitor
Concentration: 0.5 µM
Relative to: control
With `O=C1Nc2ccccc2/C1=C\c1c(Cl)[nH]c2ccccc12` the remaining activity was 99.7%.
`COc1ccc2c(c1)c(C1=C(c3c[nH]c4ccccc34)C(=O)NC1=O)cn2CCCN(C)C` gave a remaining activity of 88%.
`N#CC(c1ccnc(NCCc2cccnc2)n1)c1nc2ccccc2s1` (stereo not shown) gave a remaining activity of 93.2%.
`O=C(c1cc2cc(O)ccc2[nH]1)c1cc2cc(O)ccc2[nH]1` has a remaining activity of 93.5%.
With `O=Nc1c(-c2c(O)[nH]c3cc(Br)ccc23)[nH]c2ccccc12` the remaining activity was 79.1%.
`CC(C)(C)c1nc2c3cc[nH]c(=O)c3c3cc(F)ccc3c2[nH]1` has a remaining activity of 92.8%.
The remaining activity of `Clc1ccc(Nc2nnc(Cc3ccncc3)c3ccccc23)cc1` is reported as 107%.
The remaining activity of `O=C(c1ccccc1)c1ccc(N2CCOCC2)cc1O` is reported as 106%.
`N#C/C(=C(/N)SC1C=CC=CC1)c1cccc(C(O)c2ccncc2)c1` (stereo not shown) gave a remaining activity of 99.8%.
For `N#Cc1cnc2cnc(NCc3cccnc3)cc2c1Nc1ccc(F)c(Cl)c1`, the remaining activity was 87.4%.
The remaining activity of `c1ccc2c(-c3ccncc3)c[nH]c2c1` is reported as 97%.
For `CCCCc1c(-c2ccc(OC)cc2)[nH]c2nccnc12`, the remaining activity was 92.6%.
`Cc1ccc(S(=O)(=O)/C=C/C#N)cc1` gave a remaining activity of 98.2%.
For `O=c1c(-c2ccc(F)cc2)c(-c2ccncc2)[nH]n1-c1ccc(Cl)cc1`, the remaining activity was 97.4%.
The remaining activity of `O=C1NC(=O)/C(=C/c2ccc3c(c2)OC(F)(F)O3)S1` is reported as 98.3%.
`CN1CCN(c2ccc3nc(-c4c(N)c5c(F)cccc5[nH]c4=O)[nH]c3c2)CC1` gave a remaining activity of 104%.
`CC(C)N(CCC(=O)c1ccc2ccccc2c1)Cc1ccccc1` has a remaining activity of 98%.
`Cc1cc(Nc2cc(N3CCN(C)CC3)nc(Sc3ccc(NC(=O)C4CC4)cc3)n2)[nH]n1` has a remaining activity of 101%.
The remaining activity of `O=C1Nc2ccc(Br)cc2/C1=C/c1cc2c([nH]1)CCCC2` is reported as 93.6%.

Other studies, line by line
Target: SMN1, full length (human, UniProt Q16637, residues 1-294)
Sequence of UniProt Q16637 (whole entry, looked up): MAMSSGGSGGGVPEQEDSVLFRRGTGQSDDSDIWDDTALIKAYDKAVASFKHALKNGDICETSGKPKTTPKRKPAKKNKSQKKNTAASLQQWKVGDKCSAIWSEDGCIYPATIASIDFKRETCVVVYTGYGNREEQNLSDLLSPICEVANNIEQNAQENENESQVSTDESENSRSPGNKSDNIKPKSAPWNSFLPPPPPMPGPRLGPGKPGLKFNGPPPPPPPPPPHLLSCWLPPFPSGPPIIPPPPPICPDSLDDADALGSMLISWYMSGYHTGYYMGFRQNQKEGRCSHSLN
Method: nitrocellulose filter binding
Molecule type: RNA
Sample: in vitro
Concentration: 100 nM
Notes: whole RNA, constant flanks, single concentration, ends assumed
Relative to: round 9 selected pool
Direction: higher = stronger binding
For `GGGCUCACCACGCACGUGGCAUGUUACUUUUUAUGGUGGGCCUCACCACGGCAAGCU`, “relative RNA binding” read 25 % of pool.
`GGGCUCACCACGCACGUGUGUGGUCUGUGGGAGGAUGGUGCCUCACCACGGCAAGCU`: “relative RNA binding” 17 % of pool.

Repeated from above (study 3):
For `CCCCc1c(-c2ccc(OC)cc2)[nH]c2nccnc12`, the remaining activity was 92.6%.
`Cc1ccc(S(=O)(=O)/C=C/C#N)cc1` gave a remaining activity of 98.2%.
For `O=c1c(-c2ccc(F)cc2)c(-c2ccncc2)[nH]n1-c1ccc(Cl)cc1`, the remaining activity was 97.4%.
The remaining activity of `O=C1NC(=O)/C(=C/c2ccc3c(c2)OC(F)(F)O3)S1` is reported as 98.3%.
